Measurements of several laboratories.
Protocols differ between the studies behind these lines. ± marks the error that the study gave.
Organism: Escherichia coli

Structure (SMILES) | test | test system | conditions | how to read | quantity | result
c1ccc(CN2CCOCCOCCN(CCCCCCCCN3CCOCCOCCN(CCCCCCCCN4CCOCCOCCN(Cc5ccccc5)CCOCCOCC4)CCOCCOCC3)CCOCCOCC2)cc1 |  | tetracycline-resistant | 125 µM |  | MIC of tetracycline | 30 ± 8 µM
Cn1c(SCCN2CCCC2)nnc1C12CC3CC(CC(C3)C1)C2 |  | IFO 3301 | 200 µg/disc, 24 h, 37 °C |  | inhibition zone diameter | < 10 mm
O=C(O)[C@@H]1Cc2c([nH]c3ccccc23)[C@@H](c2ccc(Cl)cc2)N1 |  | BL21(DE3) | 250 µM, 18 h |  | growth inhibition | 0%
Clc1ccc(CSc2nnc(C34CC5CC(CC(C5)C3)C4)n2-c2ccccc2)cc1 |  | IFO 3301 | 200 µg/disc, 24 h, 37 °C |  | inhibition zone diameter | < 10 mm
O.O.O.O.O=C([O-])Cc1ccccc1Nc1c(Cl)cccc1Cl.O=C([O-])Cc1ccccc1Nc1c(Cl)cccc1Cl.[Na+].[Na+].c1cnc2c(c1)ccc1cccnc12.c1cnc2c(c1)ccc1cccnc12 | crystal violet | ATCC 25922 | 250 µM |  | biofilm inhibition | 76.83 ± 0.009%
CCCCCCCCCC1N=C(N)N=C(N)N1c1ccccc1C.Cl (racemic) | broth microdilution | ATCC 25922 | together with: 7.4 mg/mL thymidine |  | MIC90 | 64 µM
CC(=O)[O-].O.[Cu+2].[O-]c1ccc(Br)cc1C=NCCN1CCOCC1 |  |  | 20 µL of 100 µM per disc |  | inhibition zone diameter | 18 mm
c1ccc(CN2CCOCCOCCN(CCCCCCCCCCN3CCOCCOCCN(CCCCCCCCCCN4CCOCCOCCN(Cc5ccccc5)CCOCCOCC4)CCOCCOCC3)CCOCCOCC2)cc1 | tetracycline MIC, checkerboard | tetracycline-resistant (pBR322) | 1/2 MIC, together with: tetracycline | baseline: MIC alone over combination | fold enhancement | 23 fold
[Cl-].[Cl][Ru-4]123([n+]4ccccc4-c4cc(-c5ccccc5)cc([n+]41)-c1cccc[n+]12)[n+]1ccc(-c2ccccc2)c2ccc4c(-c5ccccc5)cc[n+]3c4c21 | bacterial cytological profiling | BL21(DE3) | MIC, 24 h |  | average filament length | 94 µm
Cc1ccc(N(CCc2nnc(S)o2)S(=O)(=O)c2ccc(C)cc2)cc1 | cup plate method |  | 100 µg/mL | baseline: cotrimoxazole | relative inhibition | 46.1%
Fc1cc2nc3c4cccnc4c4ncccc4c3nc2cc1F.[Cl-].[Cl-].[Ru+2].c1ccncc1.c1ccncc1.c1ccncc1.c1ccncc1 |  |  | LED irradiation 470 nm |  | MIC90 | 8 µM
c1ccc(CN2CCOCCOCCN(CCCCCCCCCCCCCCN3CCOCCOCCN(CCCCCCCCCCCCCCN4CCOCCOCCN(Cc5ccccc5)CCOCCOCC4)CCOCCOCC3)CCOCCOCC2)cc1 | checkerboard | tetracycline-resistant | together with: tetracycline |  | concentration restoring tetracycline activity | 500 nM
CC[C@@H](C)[C@@H](NC(=O)[C@@H](Cc1c[nH]c2ccccc12)NC(=O)[C@H](N)CCCNC(=N)N)C(=O)N[C@H](CCCNC(=N)N)C(=O)N[C@H](Cc1c[nH]c2ccccc12)C(=O)N[C@@H](C(=O)N[C@H](Cc1c[nH]c2ccccc12)C(=O)N[C@H](CCCNC(=N)N)C(=O)N[C@H](CCCCN)C(=O)N[C@H](CCCCN)C(=O)N[C@H](CC(C)C)C(=O)N[C@H](CCCNC(=N)N)C(N)=O)C(C)C | checkerboard | ATCC 25922 | unit not given, together with: 10-N-nonyl acridine orange | lower = stronger synergy | FICI | 1
CNC1=C([N+](=O)[O-])C2(C(=O)Nc3ccc([N+](=O)[O-])cc32)C2=C(CCCC2=O)O1 (centres unmarked) | microbial growth | ATCC25922 | 250 µg/mL, 24 h |  | inhibition | 31.6%
CC[C@H](C)[C@H](NC(=O)[C@H](CCCNC(=N)N)NC(=O)[C@@H](N)CCCNC(=N)N)C(=O)N[C@@H](CCCNC(=N)N)C(=O)N1CCC[C@H]1C(=O)N[C@@H](CCCNC(=N)N)C(=O)N1CCC[C@H]1C(=O)N1CCC[C@H]1C(=O)N[C@@H](CCCNC(=N)N)C(=O)N[C@@H](CC(C)C)C(=O)N1CCC[C@H]1C(=O)N[C@@H](CCCNC(=N)N)C(=O)N1CCC[C@H]1C(=O)N[C@@H](CCCNC(=N)N)C(=O)N1CCC[C@H]1C(=O)N[C@@H](CCCNC(=N)N)C(=O)N1CCC[C@H]1C(=O)N[C@@H](CC(C)C)C(=O)N1CCC[C@H]1C(=O)N[C@@H](Cc1ccccc1)C(=O)N1CCC[C@H]1C(=O)N[C@@H](CCCNC(=N)N)C(=O)N1CCC[C@H]1C(=O)NCC(=O)N1CCC[C@H]1C(=O)N[C@@H](CCCNC(=N)N)C(=O)N1CCC[C@H]1C(=O)N[C@H](C(=O)N1CCC[C@H]1C(=O)N[C@@H](CCCNC(=N)N)C(=O)N1CCC[C@H]1C(=O)N[C@@H](CC(C)C)C(=O)N1CCC[C@H]1C(=O)N[C@@H](Cc1ccccc1)C(=O)N1CCC[C@H]1C(=O)O)[C@@H](C)CC | membrane permeabilization, propidium iodide flow cytometry | BW25113, Mueller-Hinton broth | 8 µM, 15 min, 37 °C |  | PI-positive cells | ~50%
COc1c2c(cc3oc(=O)cc(-c4ccccc4)c13)C(=O)c1cc(C)cc(O)c1C2=O |  | MTCC 739 | 100 µg/disc |  | inhibition zone diameter | 14 mm
N=C(N)NCCC[C@@H]1NC(=O)[C@H](CCCNC(=N)N)NC(=O)[C@H](CCCNC(=N)N)NC(=O)[C@H](Cc2ccc3ccccc3c2)NC(=O)[C@H](Cc2c[nH]c3ccccc23)NC(=O)[C@H](Cc2ccc3ccccc3c2)NC(=O)[C@H](CCCNC(=N)N)NC1=O | bacterial killing | ATCC BAA-2452 | 4 x MIC |  | time to growth halt | 2 h
CC(C)C[C@@H]1NC(=O)[C@H](CCCCN)NC(=O)CNC(=O)[C@H]2CCCN2C(=O)[C@H](CCCCN)NC(=O)[C@H](CC(C)C)NC(=O)[C@H](CCCCN)NC(=O)[C@H](CC(C)C)NC(=O)[C@H](CCCCN)NC(=O)C(N)CCC=CCCC(C(N)=O)NC(=O)[C@H](CCCCN)NC(=O)[C@H](CC(C)C)NC(=O)[C@H](CCCCN)NC1=O (some centres unmarked) |  | ATCC 25922 | 2× MIC |  | time to complete killing | ≤ 3 h

Structure (SMILES) | test | test system | conditions | how to read | quantity | result
C[C@]1(COC(=O)c2ccc(O)c(O)c2)[C@H](C(=O)O)N2C(=O)/C(=C/c3ccccn3)[C@H]2S1(=O)=O | broth microdilution | TG1 expressing FOX-4 | 16 µg/mL |  | MIC of ceftazidime | ≤ 0.06 µg/mL
O=C(O)[C@@H]1Cc2c([nH]c3ccccc23)[C@@H](c2ccc(Br)cc2Cl)N1 |  | BL21(DE3) | 250 µM, 18 h |  | growth inhibition | 0%
CC[C@H](C)[C@H](NC(=O)[C@H](CS)NC(=O)[C@@H](NC(=O)[C@@H]1CCCN1C(=O)[C@H](Cc1ccccc1)NC(=O)[C@H](CC(N)=O)NC(=O)[C@@H](NC(=O)[C@H](CC(=O)O)NC(=O)CCNC(=O)CNC(=O)O[C@H]1CC[C@@]2(C)C(=CC[C@H]3[C@@H]4CC[C@H]([C@H](C)CCCC(C)C)[C@@]4(C)CC[C@@H]32)C1)[C@@H](C)O)[C@@H](C)CC)C(=O)N[C@@H](Cc1ccccc1)C(N)=O |  | mouse, bronchoalveolar lavage fluid | intratracheal, 25 nmol per mouse, 12 h |  | amphiregulin protein level | increased
CC(C)=CCc1cc2c(cc1O)OC[C@H]1c3ccc(O)c(CC=C(C)C)c3O[C@@H]21 |  | TISTR 780 | concentration not given |  | antibacterial activity | inactive
Cc1c2c(cc3oc(=O)cc(-c4ccccc4)c13)C(=O)c1cccc(O)c1C2=O |  | MTCC 739 | 100 µg/disc |  | inhibition zone diameter | 12 mm
CCCCCCCCCC1CC2CCC3CC(CCCCCCCCC)NC(=N1)N23 (centres unmarked) | bacterial growth | ATCC 35218 |  |  | IC50 | 7.02 µM
COc1ccc(/N=N/C(=S)N2CCN(C)CC2)cc1 | microbial growth | ATCC 8739, ATCC8739 | 24 h |  | IC50 | > 50 µM
Fc1ccc(CSc2nnc(C34CC5CC(CC(C5)C3)C4)n2-c2ccccc2)cc1 |  | IFO 3301 | 200 µg/disc, 24 h, 37 °C |  | inhibition zone diameter | < 10 mm
C[C@]1(COC(=O)Cc2ccc(O)c(O)c2)[C@H](C(=O)O)N2C(=O)/C(=C/c3ccccn3)[C@H]2S1(=O)=O | broth microdilution | TG1 expressing FOX-4 | 16 µg/mL |  | MIC of ceftazidime | ≤ 0.06 µg/mL
CC[C@H](C)[C@H](NC(=O)[C@H](CCCCN)NC(=O)[C@H](CC(N)=O)NC(=O)[C@H](Cc1c[nH]c2ccccc12)NC(=O)[C@H](Cc1ccccc1)NC(=O)[C@H](CCCCN)NC(=O)[C@H](CCCCNC(=N)N)NC(=O)[C@H](CC(C)C)NC(=O)[C@H](Cc1c[nH]c2ccccc12)NC(=O)[C@H](CCCCN)NC(=O)[C@H](CCCCNC(=N)N)NC(=O)[C@H](CC(C)C)NC(=O)CNC(C)=O)C(=O)N[C@@H](CCCCN)C(=O)N[C@@H](CCCCNC(=N)N)C(N)=O |  | ATCC 25922 | 12 h, together with: plasma pretreatment | baseline: MIC without plasma pretreatment | MIC fold increase | 2 fold
c1ccc(CN2CCOCCOCCN(CCCCCCCCCCCCN3CCOCCOCCN(CCCCCCCCCCCCN4CCOCCOCCN(Cc5ccccc5)CCOCCOCC4)CCOCCOCC3)CCOCCOCC2)cc1 | checkerboard | tetracycline-resistant | together with: tetracycline |  | concentration restoring tetracycline activity | 625 nM
CC(=O)N[C@H]1[C@H](Oc2ccccc2-c2cccc(C(=O)O)c2)O[C@H](CO)[C@H](O)[C@@H]1O |  | UPEC CFT073, C3H/HeN mice, chronic cystitis, bladder | transurethral, 50 mg/kg, 6 h posttreatment | baseline: vehicle | bacterial burden | decreased
CC[C@H](C)[C@H](NC(=O)CNC(=O)[C@H](CC(N)=O)NC(=O)[C@H](CCCNC(=N)N)NC(=O)[C@@H](NC(=O)[C@H](CC(N)=O)NC(=O)[C@H](CCCNC(=N)N)NC(=O)CNC(=O)[C@H](CCSC)NC(=O)[C@H](CCCCN)NC(=O)[C@H](CCC(=O)O)NC(=O)[C@@H](NC(=O)[C@H](CCCCN)NC(=O)[C@H](CCCCN)NC(=O)[C@H](Cc1ccccc1)NC(=O)[C@@H](NC(=O)[C@H](CCCCN)NC(=O)[C@H](Cc1c[nH]c2ccccc12)NC(=O)[C@@H](N)CCCCN)C(C)C)[C@@H](C)CC)[C@@H](C)CC)C(=O)N[C@H](C(=O)N[C@@H](CCCCN)C(=O)N[C@@H](C)C(=O)NCC(=O)N1CCC[C@H]1C(=O)N[C@@H](C)C(=O)N[C@H](C(=O)N[C@@H](C)C(=O)N[C@H](C(=O)N[C@@H](CC(C)C)C(=O)NCC(=O)N[C@@H](CCC(=O)O)C(=O)N[C@@H](C)C(=O)N[C@@H](CCCCN)C(=O)N[C@@H](C)C(=O)N[C@@H](CC(C)C)C(N)=O)C(C)C)[C@@H](C)CC)C(C)C | LIVE/DEAD staining | 10 mM phosphate buffer | MIC, 30 min, pH 7.4, 37 °C |  | dead cells | < 30%
CC(=NNC(=N)N)c1nnn(-c2ccc(C#CC3(O)CCCCC3)cc2)c1C | crystal violet | ATCC 25922 | MIC |  | biofilm inhibition | 65.43 ± 0.45%
COc1ccc(/N=N/C(=S)N2CCOCC2)cc1 | microbial growth | ATCC 8739, ATCC8739 | 24 h |  | IC50 | > 50 µM
Cc1ccc2ccc3ccc(C)nc3c2n1.Cc1ccc2ccc3ccc(C)nc3c2n1.O.[Cl-].[Cl-].[Cl-].[Yb+3] | bacterial growth |  |  |  | inoculation time | 24 h
CCn1cc(/C=C/c2ccc3ccccc3[n+]2CC)c2ccccc21 |  | 780 | 24 h |  | MBC | 16 ± 0.001 µg/mL

A few entries again:
Structure (SMILES) | test | test system | conditions | how to read | quantity | result
c1ccc(CN2CCOCCOCCN(CCCCCCCCCCCCCCN3CCOCCOCCN(CCCCCCCCCCCCCCN4CCOCCOCCN(Cc5ccccc5)CCOCCOCC4)CCOCCOCC3)CCOCCOCC2)cc1 | checkerboard | tetracycline-resistant | together with: tetracycline |  | concentration restoring tetracycline activity | 500 nM
CC(=O)[O-].O.[Cu+2].[O-]c1ccc(Br)cc1C=NCCN1CCOCC1 |  |  | 20 µL of 100 µM per disc |  | inhibition zone diameter | 18 mm
c1ccc(CN2CCOCCOCCN(CCCCCCCCN3CCOCCOCCN(CCCCCCCCN4CCOCCOCCN(Cc5ccccc5)CCOCCOCC4)CCOCCOCC3)CCOCCOCC2)cc1 |  | tetracycline-resistant | 125 µM |  | MIC of tetracycline | 30 ± 8 µM
Fc1cc2nc3c4cccnc4c4ncccc4c3nc2cc1F.[Cl-].[Cl-].[Ru+2].c1ccncc1.c1ccncc1.c1ccncc1.c1ccncc1 |  |  | LED irradiation 470 nm |  | MIC90 | 8 µM
CC[C@@H](C)[C@@H](NC(=O)[C@@H](Cc1c[nH]c2ccccc12)NC(=O)[C@H](N)CCCNC(=N)N)C(=O)N[C@H](CCCNC(=N)N)C(=O)N[C@H](Cc1c[nH]c2ccccc12)C(=O)N[C@@H](C(=O)N[C@H](Cc1c[nH]c2ccccc12)C(=O)N[C@H](CCCNC(=N)N)C(=O)N[C@H](CCCCN)C(=O)N[C@H](CCCCN)C(=O)N[C@H](CC(C)C)C(=O)N[C@H](CCCNC(=N)N)C(N)=O)C(C)C | checkerboard | ATCC 25922 | unit not given, together with: 10-N-nonyl acridine orange | lower = stronger synergy | FICI | 1
